Measurements from different studies.
Every numbered part comes from another study and shows a few of its results, in no order. Values joined by “and” are separate records of one study, mostly repeats; a detail may differ.
Sequence of UniProt P07948 (whole entry, looked up): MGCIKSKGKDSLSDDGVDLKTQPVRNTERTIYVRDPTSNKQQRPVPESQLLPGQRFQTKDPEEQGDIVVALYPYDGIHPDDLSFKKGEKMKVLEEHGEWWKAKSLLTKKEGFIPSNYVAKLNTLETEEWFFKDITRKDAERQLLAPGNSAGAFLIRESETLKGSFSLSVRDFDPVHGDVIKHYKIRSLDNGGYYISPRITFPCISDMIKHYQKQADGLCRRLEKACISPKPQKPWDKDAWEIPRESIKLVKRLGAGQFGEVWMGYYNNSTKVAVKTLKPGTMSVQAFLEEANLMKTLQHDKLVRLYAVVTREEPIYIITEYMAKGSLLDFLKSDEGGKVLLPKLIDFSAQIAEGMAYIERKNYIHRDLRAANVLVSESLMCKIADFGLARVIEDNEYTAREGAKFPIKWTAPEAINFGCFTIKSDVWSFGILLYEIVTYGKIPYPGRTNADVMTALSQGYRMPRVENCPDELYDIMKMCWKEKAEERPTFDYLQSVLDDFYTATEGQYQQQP
Sequence of UniProt P50750 (whole entry, looked up): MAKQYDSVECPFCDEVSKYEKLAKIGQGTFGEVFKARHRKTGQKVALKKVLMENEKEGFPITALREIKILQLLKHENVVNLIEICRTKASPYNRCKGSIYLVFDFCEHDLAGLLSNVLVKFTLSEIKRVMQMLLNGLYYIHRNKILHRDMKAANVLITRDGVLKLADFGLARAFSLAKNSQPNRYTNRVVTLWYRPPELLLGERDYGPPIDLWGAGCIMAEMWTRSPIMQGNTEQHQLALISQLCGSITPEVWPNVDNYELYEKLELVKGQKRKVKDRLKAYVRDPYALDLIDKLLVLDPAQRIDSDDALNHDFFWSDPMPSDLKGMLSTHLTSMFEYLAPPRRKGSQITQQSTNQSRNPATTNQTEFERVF
Sequence of UniProt P51957 (whole entry, looked up): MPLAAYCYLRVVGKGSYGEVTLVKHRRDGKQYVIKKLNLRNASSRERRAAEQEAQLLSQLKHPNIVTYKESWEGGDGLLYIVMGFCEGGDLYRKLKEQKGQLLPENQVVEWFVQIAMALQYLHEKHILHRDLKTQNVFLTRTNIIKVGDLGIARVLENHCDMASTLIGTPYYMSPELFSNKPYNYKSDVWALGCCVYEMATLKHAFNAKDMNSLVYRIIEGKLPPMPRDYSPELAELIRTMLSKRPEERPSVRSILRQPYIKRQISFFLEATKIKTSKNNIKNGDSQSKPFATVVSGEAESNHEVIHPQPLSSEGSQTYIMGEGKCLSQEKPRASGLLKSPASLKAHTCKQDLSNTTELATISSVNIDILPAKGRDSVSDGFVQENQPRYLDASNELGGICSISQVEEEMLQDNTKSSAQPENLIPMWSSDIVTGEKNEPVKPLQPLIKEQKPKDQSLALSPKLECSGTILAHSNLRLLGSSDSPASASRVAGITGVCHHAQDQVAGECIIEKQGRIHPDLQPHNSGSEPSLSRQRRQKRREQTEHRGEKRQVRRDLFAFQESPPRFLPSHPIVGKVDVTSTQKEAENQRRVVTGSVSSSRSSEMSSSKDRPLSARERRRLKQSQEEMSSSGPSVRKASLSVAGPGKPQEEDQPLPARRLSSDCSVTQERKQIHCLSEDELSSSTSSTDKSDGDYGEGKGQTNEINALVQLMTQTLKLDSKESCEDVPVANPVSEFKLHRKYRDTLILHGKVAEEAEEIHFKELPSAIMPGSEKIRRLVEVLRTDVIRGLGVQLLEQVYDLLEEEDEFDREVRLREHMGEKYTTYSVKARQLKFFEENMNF
Sequence of UniProt Q9Y3S1 (whole entry, looked up): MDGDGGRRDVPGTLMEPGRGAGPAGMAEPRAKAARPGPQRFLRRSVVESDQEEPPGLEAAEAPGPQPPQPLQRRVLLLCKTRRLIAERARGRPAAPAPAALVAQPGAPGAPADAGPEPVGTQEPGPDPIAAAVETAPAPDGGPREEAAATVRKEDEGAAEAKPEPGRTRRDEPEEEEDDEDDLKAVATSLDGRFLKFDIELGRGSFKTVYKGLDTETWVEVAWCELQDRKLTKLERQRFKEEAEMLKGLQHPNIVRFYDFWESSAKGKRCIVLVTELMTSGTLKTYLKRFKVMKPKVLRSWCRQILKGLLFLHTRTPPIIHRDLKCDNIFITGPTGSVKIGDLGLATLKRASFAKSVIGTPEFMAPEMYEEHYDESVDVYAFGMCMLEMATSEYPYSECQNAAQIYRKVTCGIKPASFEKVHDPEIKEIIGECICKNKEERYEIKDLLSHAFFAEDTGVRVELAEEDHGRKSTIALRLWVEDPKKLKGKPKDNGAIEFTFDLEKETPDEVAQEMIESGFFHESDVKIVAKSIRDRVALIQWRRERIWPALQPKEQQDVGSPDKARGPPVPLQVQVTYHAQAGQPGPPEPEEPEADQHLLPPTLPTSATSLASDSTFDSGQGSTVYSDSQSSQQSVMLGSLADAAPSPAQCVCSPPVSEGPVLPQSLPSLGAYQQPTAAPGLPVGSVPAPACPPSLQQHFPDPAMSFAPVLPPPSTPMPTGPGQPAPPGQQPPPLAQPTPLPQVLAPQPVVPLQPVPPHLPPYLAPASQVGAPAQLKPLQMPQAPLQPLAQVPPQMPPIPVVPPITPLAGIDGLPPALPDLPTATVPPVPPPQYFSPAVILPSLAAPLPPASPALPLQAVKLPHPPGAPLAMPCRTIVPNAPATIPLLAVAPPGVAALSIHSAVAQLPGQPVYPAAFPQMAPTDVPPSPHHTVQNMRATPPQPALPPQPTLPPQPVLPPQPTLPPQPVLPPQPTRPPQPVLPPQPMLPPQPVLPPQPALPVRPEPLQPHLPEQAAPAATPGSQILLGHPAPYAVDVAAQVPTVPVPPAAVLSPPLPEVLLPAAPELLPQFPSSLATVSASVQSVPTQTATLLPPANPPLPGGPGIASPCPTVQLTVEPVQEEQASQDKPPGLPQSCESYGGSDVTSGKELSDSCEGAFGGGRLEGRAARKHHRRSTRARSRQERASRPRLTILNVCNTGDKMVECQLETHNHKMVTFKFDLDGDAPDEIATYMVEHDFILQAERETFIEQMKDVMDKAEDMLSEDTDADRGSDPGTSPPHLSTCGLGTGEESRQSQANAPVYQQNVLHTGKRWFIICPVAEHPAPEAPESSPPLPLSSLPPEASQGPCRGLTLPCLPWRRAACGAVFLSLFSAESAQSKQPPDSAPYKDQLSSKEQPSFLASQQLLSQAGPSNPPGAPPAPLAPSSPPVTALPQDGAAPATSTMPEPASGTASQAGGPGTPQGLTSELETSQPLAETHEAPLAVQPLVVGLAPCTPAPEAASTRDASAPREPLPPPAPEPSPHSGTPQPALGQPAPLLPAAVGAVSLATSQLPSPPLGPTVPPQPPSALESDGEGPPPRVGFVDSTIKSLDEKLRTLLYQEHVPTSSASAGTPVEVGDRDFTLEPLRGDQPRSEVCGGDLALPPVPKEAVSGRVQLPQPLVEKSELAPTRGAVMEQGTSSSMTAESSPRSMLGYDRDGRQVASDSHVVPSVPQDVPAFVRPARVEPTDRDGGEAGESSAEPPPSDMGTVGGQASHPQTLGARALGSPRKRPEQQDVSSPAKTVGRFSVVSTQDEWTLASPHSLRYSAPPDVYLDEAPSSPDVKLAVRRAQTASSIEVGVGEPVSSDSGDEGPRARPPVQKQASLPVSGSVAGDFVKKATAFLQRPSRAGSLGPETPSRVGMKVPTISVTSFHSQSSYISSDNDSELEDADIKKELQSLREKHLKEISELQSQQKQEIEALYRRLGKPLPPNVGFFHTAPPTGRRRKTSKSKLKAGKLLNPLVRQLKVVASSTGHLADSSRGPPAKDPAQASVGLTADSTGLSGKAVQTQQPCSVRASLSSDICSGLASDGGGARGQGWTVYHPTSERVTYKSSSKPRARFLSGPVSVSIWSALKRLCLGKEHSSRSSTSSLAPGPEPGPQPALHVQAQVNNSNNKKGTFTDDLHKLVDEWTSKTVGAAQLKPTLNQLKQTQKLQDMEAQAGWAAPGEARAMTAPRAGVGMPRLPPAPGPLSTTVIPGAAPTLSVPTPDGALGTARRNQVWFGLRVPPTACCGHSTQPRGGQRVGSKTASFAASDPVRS

Set 1
SMILES: COc1cc(C(=O)N2CCC(N3CCN(C)CC3)CC2)ccc1Nc1ncc2c(n1)N(C)c1ccccc1C(=O)N2C
| target or system | assay | test system | setting | inhibition |
| --- | --- | --- | --- | --- |
| mouse CaMK1δ | probe labelling, KiNativ ATP probe | mouse brain lysate | 0.1 µM, LYS1 site LFAVkCIPK | -2.7% |
| Receptor tyrosine-protein kinase erbB-4 (Erbb4, Mus musculus, UniProt Q61527) | KiNativ profiling | mouse brain lysate | 0.1 µM, LYS1 site, together with: ATP acyl phosphate probe | -14% |
| human PBMC | probe labeling, inhibitor, KiNativ profiling, measured: FYAVkVLQK | cell lysate | concentration not given, LYS1 site, together with: ADP acyl-phosphate probe 1 µM | -7.7% |
| MAP2K6 (mouse) | probe labelling, KiNativ ATP probe | mouse brain lysate | 0.1 µM, LYS2 labelled site | -6.7% |
| MYLK | KiNativ ADP probe | human PBMC lysate | 1 µM, LYS1 site | 10.1% |
| TRKB (mouse) | probe labelling, inhibitor, KiNativ ActivX ADP probe | mouse brain lysate | 1 µM, Lys1 site peptide | -9% |
| PAN3 human | KiNativ profiling | human PBMC lysate | concentration not given, ADP probe, other site | -7.4% |
| PHKg2 (mouse) | probe labelling, KiNativ, measured: Lys1 site peptide | brain tissue lysate (mouse) | 0.1 µM, together with: ATP acyl-phosphate probe | 13.4% |
| Serine/threonine-protein kinase MARK2 (Mark2, Mus musculus, UniProt Q05512) | KiNativ profiling | mouse brain lysate | 0.1 µM, LYS1 site, together with: ATP acyl phosphate probe | -16.1% |
| TBK1 mouse | KiNativ profiling | mouse brain lysate | 1 µM, LYS1 site, together with: ATP acyl phosphate probe | -8.8% |
| mouse PFTAIRE1 | probe labelling, KiNativ ADP probe | mouse brain lysate | 1 µM, LYS1 site LVALkVIR | -9.3% |
| SYK human | KiNativ profiling | human PBMC | 1 µM, LYS1 site, together with: ADP acyl phosphate probe | 10.3% |
| human PBMC | probe labeling, inhibitor, KiNativ profiling, measured: LTDFGLSkESIDHEKK | cell lysate | concentration not given, domain 1, activation loop site, together with: ADP acyl-phosphate probe 0.1 µM | 0.6% |
| mouse CaMK1α | probe labelling, KiNativ ADP probe | mouse brain lysate | 0.1 µM, LYS1 site LVAIkCIAK | -1.8% |
| WNK1/WNK2/WNK4 (mouse) | probe labelling, inhibitor, KiNativ ActivX ATP probe | mouse brain lysate | 0.1 µM, activation loop peptide IGDLGLATLkR | -10.3% |
| TNIK (human) | probe labelling, KiNativ, measured: Lys1 site peptide | PBMC lysate (human) | 1 µM, together with: ADP acyl-phosphate probe | 5.9% and -3% |
| PCTAIRE1 (mouse) | probe labelling, KiNativ ATP probe | mouse brain lysate | 0.1 µM, LYS1 labelled site | 8.3% |

Set 2 — SMILES: Fc1ccc(-c2nc3n(c2-c2ccncc2)CCS3)cc1; read-out: enzyme activity; mode: inhibitor; tested at: 0.5 µM; reference: control
| target | remaining activity [%] |
| --- | --- |
| Mitogen-activated protein kinase kinase kinase kinase 2 (MAP4K2, Homo sapiens, UniProt Q12851) | 109 |
| Leucine-rich repeat serine/threonine-protein kinase 2 (LRRK2, Homo sapiens, UniProt Q5S007) | 96.7 |
| Serine/threonine-protein kinase Chk1 (CHEK1, Homo sapiens, UniProt O14757) | 95.9 |
| Ephrin type-A receptor 5 (EPHA5, Homo sapiens, UniProt P54756) | 89.7 |
| Interleukin-1 receptor-associated kinase 4 (IRAK4, Homo sapiens, UniProt Q9NWZ3) | 109 |
| Casein kinase II subunit alpha (CSNK2A1, Homo sapiens, UniProt P68400) | 106 |
| Casein kinase I isoform alpha (CSNK1A1, Homo sapiens, UniProt P48729) | 58.8 |
| Mitogen-activated protein kinase 12 (MAPK12, Homo sapiens, UniProt P53778) | 104 |
| Mast/stem cell growth factor receptor Kit (KIT, Homo sapiens, UniProt P10721) | 92.8 |
| MAP kinase-interacting serine/threonine-protein kinase 2 (MKNK2, Homo sapiens, UniProt Q9HBH9) | 84.9 |
| Tyrosine-protein kinase Lyn (LYN, Homo sapiens, UniProt P07948) | 97.4 |
| Dual specificity mitogen-activated protein kinase kinase 6 (MAP2K6, Homo sapiens, UniProt P52564) | 104 |
| Cyclin-dependent kinase 9, with cyclin T1 (CDK9, Homo sapiens, UniProt P50750) | 94.9 |
| Serine/threonine-protein kinase Nek4 (NEK4, Homo sapiens, UniProt P51957) | 93.5 |
| cGMP-dependent protein kinase 1 (PRKG1, Homo sapiens, UniProt Q13976) | 103 |
| Protein kinase C delta type (PRKCD, Homo sapiens, UniProt Q05655) | 99.1 |
| Serine/threonine-protein kinase 38 (STK38, Homo sapiens, UniProt Q15208) | 88 |
| Serine/threonine-protein kinase PLK2 (PLK2, Homo sapiens, UniProt Q9NYY3) | 103 |
| Tyrosine-protein kinase BTK (BTK, Homo sapiens, UniProt Q06187) | 103 |
| Mitogen-activated protein kinase kinase kinase 10 (MAP3K10, Homo sapiens, UniProt Q02779) | 101 |
| Mitogen-activated protein kinase 13 (MAPK13, Homo sapiens, UniProt O15264) | 111 |
| RAC-gamma serine/threonine-protein kinase (AKT3, Homo sapiens, UniProt Q9Y243) | 109 |
| Serine/threonine-protein kinase WNK2 (WNK2, Homo sapiens, UniProt Q9Y3S1) | 104 |

Set 3 — read-out: ligand displacement; tested at: 10 µM
Target: Histamine H3 receptor (HRH3, Homo sapiens, UniProt Q9Y5N1)
Sequence of UniProt Q9Y5N1 (whole entry, looked up): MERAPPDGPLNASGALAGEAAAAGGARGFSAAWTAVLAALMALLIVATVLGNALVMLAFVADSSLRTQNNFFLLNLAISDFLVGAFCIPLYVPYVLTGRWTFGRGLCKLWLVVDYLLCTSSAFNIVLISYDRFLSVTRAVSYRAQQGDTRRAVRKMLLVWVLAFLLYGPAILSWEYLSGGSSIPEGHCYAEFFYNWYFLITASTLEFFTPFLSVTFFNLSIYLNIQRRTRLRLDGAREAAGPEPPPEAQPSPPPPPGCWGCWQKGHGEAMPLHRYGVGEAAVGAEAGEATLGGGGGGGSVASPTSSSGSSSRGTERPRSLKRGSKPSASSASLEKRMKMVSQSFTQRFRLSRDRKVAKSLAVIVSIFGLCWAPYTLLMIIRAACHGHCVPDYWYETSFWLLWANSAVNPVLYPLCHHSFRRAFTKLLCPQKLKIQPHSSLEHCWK
| SMILES | inhibition [%] |
| --- | --- |
| O=C(Nc1ccc(Oc2ccc(F)cc2)cc1)N1CCc2ncccc2[C@H]1c1ccc(F)cc1 | 3.57 |
| CN1CCN(C(=O)C(C)(C)c2ccc(C(=O)Nc3cn4cc(-c5cc(C(C)(C)C)cc(C(C)(C)C)c5)ccc4n3)cc2)CC1 | 43.8 |
| CN1CCN(c2cnc3c(C4CCN(C(=O)c5ccc(OC(F)(F)F)cc5N)CC4)ncnc3c2)CC1 | 36.9 |
| COCCOc1nc(-c2ccc(Cl)nc2)nc2c1CN(C(=O)c1ncn3ccccc13)CC2 | 5.45 |
| CCOc1ccc(S(=O)(=O)Nc2ccc(Cl)cc2C#Cc2cnc(C(=O)O)cc2OC)c2ncccc12 | -12.9 |
| c1ccc(C2CCN(c3cnc4c(N5CCOCC5)nccn34)CC2)cc1 | 7.29 |
| Nc1cnc(N2CCc3cc(S(=O)(=O)Nc4c(F)cc(Cl)cc4F)cc(N4CCCC4=O)c32)nc1 | -1.21 |
| Cn1cc(Cl)c2c(Oc3c(F)cc(Nc4cc(Cl)nc(N)n4)cc3F)ccnc21 | 31 |
| CS(=O)(=O)N1CCCC(NC(=O)[C@H](CCC2CCCCC2)NC(=O)c2ccc(CNC(=O)c3cnc4ccccn34)cc2)C1 (some centres unmarked) | 0.32 |
| Cn1nc(C(=O)NCc2ccc(C(=O)O)cc2)cc1-c1ccc2[nH]ccc2c1 | -4.12 |
| CO[C@H]1CC[C@H](CNc2ccc(S(=O)(=O)NC(=O)c3ccc(N4CCN(CC5=C(c6ccc(Cl)cc6)CC(C)(C)CC5)CC4)cc3Oc3cnc4[nH]ccc4c3)cc2[N+](=O)[O-])CC1 | 4.97 |
| C[C@@H]1CN(c2cc(-c3n[nH]c4ccc(OC5(C)CC5)cc34)ncn2)C[C@H](C)O1 | -17.3 |
| CC1=C(C#N)C(c2ccc3[nH]nc(C)c3c2)C(C#N)=C(C)N1 | -3.35 |
| COc1ccc2cc(OCC3(C(=O)O)CN(C(=O)c4ccc(F)cc4)C3)ccc2c1 | -15.3 |
| Nc1nc(NCc2ccccc2)nc(-c2ccccc2CO)n1 | -1.93 |
| O=S(=O)(NC1CCC(c2cc(F)ccc2F)(S(=O)(=O)c2ccc(Cl)cc2)CC1)C(F)(F)F (centres unmarked) | 14.2 |
| Cc1cc(Nc2nccc(C)n2)cc(-c2cnc([C@@]3(O)CC[C@H](C(=O)O)C(C)(C)C3)s2)c1 | 50.4 |
| C[C@H](c1ccnc(Nc2nc3ccc(-c4cc(N(C)C)ncn4)cc3[nH]2)c1)N1CCN(C(=O)CC(F)(F)F)CC1 | -3.83 |

Set 4 — read-out: enzyme activity; mode: inhibitor; tested at: 10 µM
Target: Calcium/calmodulin-dependent protein kinase type II subunit alpha (CAMK2A, Homo sapiens, UniProt Q9UQM7)
Sequence of UniProt Q9UQM7 (whole entry, looked up): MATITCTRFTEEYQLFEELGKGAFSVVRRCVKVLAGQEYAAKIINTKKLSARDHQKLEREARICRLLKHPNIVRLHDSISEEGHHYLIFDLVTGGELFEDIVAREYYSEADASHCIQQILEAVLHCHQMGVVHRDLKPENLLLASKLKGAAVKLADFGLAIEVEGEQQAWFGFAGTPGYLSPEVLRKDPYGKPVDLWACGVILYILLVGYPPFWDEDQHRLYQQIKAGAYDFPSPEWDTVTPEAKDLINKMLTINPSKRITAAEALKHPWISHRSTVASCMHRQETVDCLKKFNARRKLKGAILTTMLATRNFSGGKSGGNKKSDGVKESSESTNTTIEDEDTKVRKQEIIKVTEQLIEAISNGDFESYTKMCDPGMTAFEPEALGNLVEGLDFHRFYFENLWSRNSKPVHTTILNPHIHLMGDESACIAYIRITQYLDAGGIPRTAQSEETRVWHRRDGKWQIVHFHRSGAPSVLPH
| Structure (SMILES) | inhibition [%] |
| --- | --- |
| OC[C@H]1O[C@@H](Oc2cc(O)cc(/C=C/c3ccc(O[C@@H]4O[C@H](CO)[C@@H](O)[C@H](O)[C@H]4O)cc3O)c2)[C@H](O)[C@@H](O)[C@@H]1O | -17 |
| COc1cc(-c2oc3cc(OC)c(OC)c(O)c3c(=O)c2OC)ccc1O | -57 |
| CC(C)CCC[C@@H](C)[C@H]1CC[C@H]2[C@@H]3CC=C4C[C@@H](O)CC[C@]4(C)[C@H]3CC[C@]12C | 26 |
| CC(C)[C@@H]1CC[C@@H](C)C[C@H]1O (racemic) | 0.21 |
| CC(=O)N[C@H]1[C@H]([C@H](O)[C@H](O)CO)OC(C(=O)O)=C[C@@H]1N=C(N)N | 0 |
| CC1=C(C=O)C(C)(C)CC=C1 | 27 |
| O=C(N[C@@H](c1ccccc1)[C@@H](O)C(=O)O)c1ccccc1 | 5 |
| CCOC(=O)c1ccc(N)cc1 | 3 |
| CC(O)Cn1cnc2c1c(=O)n(C)c(=O)n2C (centres unmarked) | 7 |
| c1ccc(-c2ccc(C(c3ccccc3)n3ccnc3)cc2)cc1 (centres unmarked) | 0 |
| C=C[C@H]1[C@H](O[C@@H]2O[C@H](CO)[C@@H](O)[C@H](O)[C@H]2O)OC=C(C(=O)OC)[C@H]1CC=O | 1 |
| COC(=O)[C@@]12OC[C@]34[C@H]([C@@H](O)[C@@H]1O)[C@@]1(C)CC(=O)C(O)=C(C)[C@@H]1C[C@H]3OC(=O)[C@H](OC(C)=O)[C@@H]24 | -10 |
| O=C(O)/C=C\c1ccc2occc2c1O[C@@H]1O[C@H](CO)[C@@H](O)[C@H](O)[C@H]1O | -8 |

A few entries again (set 2):
| target | remaining activity [%] |
| --- | --- |
| Casein kinase II subunit alpha (CSNK2A1, Homo sapiens, UniProt P68400) | 106 |
| Casein kinase I isoform alpha (CSNK1A1, Homo sapiens, UniProt P48729) | 58.8 |
| Mitogen-activated protein kinase 12 (MAPK12, Homo sapiens, UniProt P53778) | 104 |
| Mast/stem cell growth factor receptor Kit (KIT, Homo sapiens, UniProt P10721) | 92.8 |
| MAP kinase-interacting serine/threonine-protein kinase 2 (MKNK2, Homo sapiens, UniProt Q9HBH9) | 84.9 |
